# Published values gathered from unrelated publications.
# Lines come from different studies, so protocols differ. Values joined by “and” are separate records of one study, mostly repeats; a detail may differ. ± marks the error that the study gave.
SMILES,cell line,test,system,setting,scale,quantity,result
O=C1C(Cl)=C(Cl)C(=O)c2ccccc21,MRC-5,"cytotoxicity, MTT",,"48 h, 10% FBS",,IC50,115 ± 4.11 µM
N=C(N)NCCC[C@H](NC(=O)[C@H](Cc1c[nH]c2ccccc12)NC(=O)[C@H](CCCNC(=N)N)NC(=O)[C@H](Cc1c[nH]c2ccccc12)NC(=O)[C@H](Cc1c[nH]c2ccccc12)NC(=O)[C@H](Cc1c[nH]c2ccccc12)NC(=O)[C@H](CCCNC(=N)N)NC(=O)[C@H](Cc1c[nH]c2ccccc12)NC(=O)[C@@H](N)CCCNC(=N)N)C(=O)N[C@@H](Cc1c[nH]c2ccccc12)C(N)=O,mouse red blood cells,,,,,minimal haemolytic concentration,16 µM
CCn1cc(-c2cc([C@@H](C)NC(=O)c3cc(OCCN(C)C)ccc3C)c3ccccc3n2)c(C(F)(F)F)n1,Vero E6,,,250 µM,,viability,1.35% and 2.5%
O=c1n(CCNCCOS(=O)(=O)c2ccccc2)c(=O)n(S(=O)(=O)c2ccccc2)c(=O)n1S(=O)(=O)c1ccccc1,HUVEC,"cell growth or viability, MTT",,"12.5 µg/mL, 48 h",,viability,38.9%
Cc1cc(-c2cc([C@@H](C)NC(=O)c3cc(OCCN(C)C)ccc3C)c3ccccc3n2)n(C)n1,Vero E6,,,3.906 µM,,viability,106% and 105%
CC(C)C[C@H](NC(=O)[C@H](CCCNC(=N)N)NC(=O)[C@H](Cc1c[nH]c2ccccc12)NC(=O)[C@H](CCCNC(=N)N)NC(=O)[C@H](Cc1c[nH]c2ccccc12)NC(=O)[C@H](Cc1c[nH]c2ccccc12)NC(=O)[C@H](Cc1c[nH]c2ccccc12)NC(=O)[C@H](CCCNC(=N)N)NC(=O)[C@H](Cc1c[nH]c2ccccc12)NC(=O)[C@@H](N)CCCNC(=N)N)C(N)=O,mouse red blood cells,,,,,minimal haemolytic concentration,32 µM
CNC(=O)C[C@H](Cc1ccncc1)NC(=O)[C@@H](Cc1cccc(Br)c1)NC(=O)[C@@H](N)Cc1cccc(F)c1,Huh-7-ACE2,CellTiter-Glo,,"0.0977 µM, 48 h, unit not given",baseline: DMSO,viability,0.917 and 1.06 and 1.01
NC(=O)c1cc(-c2cccnc2)ccc1OCCc1cccc(F)c1,HepG2,,,3 (unit not given),baseline: CC50 glucose over CC50 galactose,selectivity ratio,< 1
CNC(=O)C[C@H](Cc1ccncc1)NC(=O)[C@@H](Cc1cccc(Br)c1)NC(=O)[C@@H](N)Cc1ccsc1,Huh-7-ACE2,CellTiter-Glo,,"0.391 µM, 48 h, unit not given",baseline: DMSO,viability,1.05 and 1.1
O=C(O)c1cccc(CP(=O)(O)O)n1,H4IIE,"cytotoxicity, Alamar blue",DMEM without FBS,"24 h, 10% FBS",,EC50,700 ± 200 µg/mL
C#Cc1ccc(N2CCOCC2)c(/C=N/NC(=O)CCl)c1,MCF-10A,"cell growth or viability, ATP luminescence",,24 h,,IC50,2.3 µM
O=C(C=Cc1ccc(O)c(O)c1)OC1CC(O)(C(=O)O)CC(OC(=O)C=Cc2ccc(O)c(O)c2)C1O (stereo not shown),Vero E6,,,12.5 µM,,cytotoxicity,0%
CNC(=O)C[C@H](Cc1ccc(F)cc1)NC(=O)[C@@H](Cc1ccc(Cl)cc1Cl)NC(=O)[C@H](N)Cc1ccccc1[N+](=O)[O-],Huh-7-ACE2,CellTiter-Glo,,"0.781 µM, 48 h, unit not given",baseline: DMSO,viability,0.874 and 0.938 and 0.965
CCn1ccc(-c2cc([C@@H](C)NC(=O)c3cc(N4CCN(C)CC4)ccc3C)c3ccccc3n2)n1,Vero E6,,,250 µM,,viability,0.599% and 0.449%
O=C1C=CC(=O)c2ccccc21,MRC-5,"cytotoxicity, MTT",,"48 h, 10% FBS",,IC50,36.9 ± 0.51 µM
Cc1ccc(OCCN(C)C)cc1C(=O)N[C@H](C)c1cc(-c2ccnn2C)nc2ccccc12,Vero E6,,,250 µM,,viability,0% and -2.11%
CC[C@H](C)[C@H](NC(=O)[C@@H](NC(=O)[C@H](C)NC(=O)[C@H](C)NC(=O)[C@H](CCC(N)=O)NC(=O)CNC(=O)[C@@H](NC(=O)[C@@H](NC(=O)[C@H](C)NC(=O)[C@@H](NC(=O)[C@H](C)NC(=O)[C@@H]1CCCN1C(=O)CNC(=O)[C@H](C)NC(=O)[C@H](CCCCN)NC(=O)[C@@H](NC(=O)[C@@H](NC(=O)CNC(=O)[C@H](CC(=O)O)NC(=O)[C@H](CCCNC(=N)N)NC(=O)[C@@H](NC(=O)[C@H](CC(N)=O)NC(=O)[C@H](CCC(N)=O)NC(=O)CNC(=O)[C@@H](NC(=O)[C@H](CCCCN)NC(=O)[C@H](CCC(=O)O)NC(=O)[C@@H](NC(=O)[C@H](CCCCN)NC(=O)[C@H](CCCCN)NC(=O)[C@H](Cc1ccccc1)NC(=O)[C@@H](NC(=O)[C@H](CCCCN)NC(=O)[C@H](Cc1c[nH]c2ccccc12)NC(=O)[C@@H](N)CCCNC(=N)N)[C@@H](C)CC)[C@@H](C)CC)C(C)C)[C@@H](C)CC)[C@@H](C)CC)C(C)C)C(C)C)C(C)C)C(C)C)[C@@H](C)O)C(N)=O,MDA-MB-231,CCK-8,,"8 µM, 24 h, 1% FBS",,cytotoxicity,not toxic
Cc1ccc(N2CCC3(CC2)CN(C)C3)cc1C(=O)N[C@H](C)c1cc(-c2cnn(C)c2)nc2ccccc12,Vero E6,,,250 µM,,viability,1.25% and 1.07% and 0.893%
CN(C)CCCNC(=O)[C@@H]1NC(=O)[C@@H]2Cc3ccc(cc3)Oc3cc4cc(c3O)-c3ccc5c(c[nH]c5c3)C[C@@H](NC(=O)C(NC(=O)CCCCCN)c3ccc(O)cc3)C(=O)N[C@H](c3ccc(O)cc3)C(=O)N[C@H]4C(=O)N[C@@H](C(=O)N2C)c2ccc(cc2)Oc2cc1ccc2O (stereo partly shown),human red blood cells,,,"1 µg/mL, 1 h, 37 °C, 1% DMSO",,hemolysis,0.47%
Cc1ccc(OC[C@@H]2CCN2C)cc1C(=O)N[C@H](C)c1cc(-c2cnn(C)c2)nc2ccccc12,African green monkey cells,,,15.62 µM,,viability,90.2%
CCC1=C(C)C2=C(c3ccc(C(=O)NCCNC(=O)c4ccc(P(=NC5=[O+][Ru-]([Cl])[n+]6ccccc65)(c5ccccc5)c5ccccc5)cc4)cc3)c3c(C)c(CC)c(C)n3[B-](F)(F)[N+]2=C1C.Cc1ccc(C(C)C)cc1.[Cl-],MDA-MB-231,confocal microscopy,,"10 µM, added: ER-Tracker Red",,ER colocalization,83 ± 9%
Cc1ccc(N(C)C2CN(C)C2)cc1C(=O)N[C@H](C)c1cc(-c2cnn(C)c2)nc2ccccc12,Vero E6,,,7.812 µM,,viability,88.6% and 86% and 86.5%
CC(C)C[C@H](NC(=O)[C@H](CCCNC(=N)N)NC(=O)[C@@H](N)Cc1c[nH]c2ccccc12)C(=O)N[C@@H](Cc1c[nH]c2ccccc12)C(=O)N[C@@H](Cc1c[nH]c2ccccc12)C(=O)N[C@@H](Cc1c[nH]c2ccccc12)C(=O)N[C@@H](CCCNC(=N)N)C(=O)N[C@@H](CCCNC(=N)N)C(=O)N[C@@H](Cc1c[nH]c2ccccc12)C(=O)O,HEK-293T cells,CCK-8,,"4 h, 37 °C, 10% cell death",,lowest cytotoxic concentration,> 256 µg/mL
Cc1ccc(OC[C@@H]2CCCN2C)cc1C(=O)N[C@H](C)c1cc(-c2cnn(C)c2)nc2ccccc12,African green monkey cells,,,31.25 µM,,viability,93%
CC(C)C[C@H](NC(=O)[C@H](CCCNC(=N)N)NC(=O)[C@H](Cc1c[nH]c2ccccc12)NC(=O)[C@H](CCCNC(=N)N)NC(=O)[C@H](Cc1c[nH]c2ccccc12)NC(=O)[C@H](Cc1c[nH]c2ccccc12)NC(=O)[C@H](Cc1c[nH]c2ccccc12)NC(=O)[C@H](CCCNC(=N)N)NC(=O)[C@H](Cc1c[nH]c2ccccc12)NC(=O)[C@H](CCCNC(=N)N)NC(=O)CN)C(N)=O,mouse red blood cells,,,,,minimal haemolytic concentration,32 µM
C#CCOc1ccc(CN[C@@]2(C)C[C@H](O[C@H]3[C@H](Oc4c5cc6cc4Oc4ccc(cc4Cl)[C@@H](O)[C@@H](NC(=O)[C@@H](CC(C)C)NC)C(=O)N[C@@H](CC(N)=O)C(=O)N[C@H]6C(=O)N[C@H]4C(=O)N[C@H](C(=O)N[C@H](C(=O)O)c6cc(O)cc(O)c6-c6cc4ccc6O)[C@H](O)c4ccc(c(Cl)c4)O5)O[C@H](CO)[C@@H](O)[C@@H]3O)O[C@@H](C)[C@H]2O)cc1OC,sheep erythrocytes,,,"512 µg/mL, 37 °C",baseline: Triton X-100,hemolysis,< 5%
CC[C@H](C)[C@@H]1NC(=O)[C@H](C(C)C)NC(=O)[C@H](C(C)C)NC(=O)[C@H](CC(C)C)NC(=O)C[C@@H](C(=O)N[C@@H](Cc2c[nH]c3ccccc23)C(=O)N[C@@H](CC(N)=O)C(=O)N[C@@H](C)C(=O)N2CCC[C@H]2C(=O)NCC(=O)N[C@@H](Cc2c[nH]c3ccccc23)C(=O)N[C@@H](Cc2ccccc2)C(=O)O)NC(=O)[C@H](C)NC(=O)[C@H](CCC(N)=O)NC(=O)[C@H](C(C)C)NC1=O,HCT-8,,,10 µM,,cytotoxicity,not toxic
CNC(=O)C[C@H](Cc1ccccc1)NC(=O)[C@@H](Cc1ccc(Cl)cc1Cl)NC(=O)[C@H](N)Cc1ccccc1C#N,Huh-7-ACE2,CellTiter-Glo,,"0.000763 µM, 48 h, unit not given",baseline: DMSO,viability,0.999 and 0.96 and 1.03
CC[C@H](C)[C@H](NC(=O)[C@H](CCCNC(=N)N)NC(=O)[C@H](Cc1c[nH]c2ccccc12)NC(=O)[C@H](CCCNC(=N)N)NC(=O)[C@H](Cc1c[nH]c2ccccc12)NC(=O)[C@H](Cc1c[nH]c2ccccc12)NC(=O)[C@H](Cc1c[nH]c2ccccc12)NC(=O)[C@H](CCCNC(=N)N)NC(=O)[C@H](Cc1c[nH]c2ccccc12)NC(=O)[C@H](CCCNC(=N)N)NC(=O)CN)C(N)=O,mouse red blood cells,,,,,minimal haemolytic concentration,32 µM
CCCCCC1=C(NCC)C(=O)C(C/C=C(\C)CCC=C(C)C)=C(O)C1=O,human peripheral lymphocytes,,,"45 µg/mL, 3 h, with S9, harvest 27 h",,cytostasis,47%
CNC(=O)CC1CN(C(=O)c2ccc(C(F)(F)F)cn2)CCN1C(=O)c1cccnn1 (stereo not shown),Huh-7-ACE2,CellTiter-Glo,,"6.25 µM, 48 h, unit not given",baseline: DMSO,viability,1.09 and 0.941 and 0.959

# For quick reference, copied from above:
SMILES,cell line,test,system,setting,scale,quantity,result
CNC(=O)C[C@H](Cc1ccc(F)cc1)NC(=O)[C@@H](Cc1ccc(Cl)cc1Cl)NC(=O)[C@H](N)Cc1ccccc1[N+](=O)[O-],Huh-7-ACE2,CellTiter-Glo,,"0.781 µM, 48 h, unit not given",baseline: DMSO,viability,0.874 and 0.938 and 0.965
CCn1ccc(-c2cc([C@@H](C)NC(=O)c3cc(N4CCN(C)CC4)ccc3C)c3ccccc3n2)n1,Vero E6,,,250 µM,,viability,0.599% and 0.449%
O=C1C=CC(=O)c2ccccc21,MRC-5,"cytotoxicity, MTT",,"48 h, 10% FBS",,IC50,36.9 ± 0.51 µM
